# Results pooled from the literature.
# Numbered parts are unrelated; each lists some results of a single study.

# Set 1
# Target: PABPC1L2, full length, GST fusion (mouse, UniProt A0ABA7IW68)
# Method: RNAcompete
# Form: RNA
# Medium: in vitro
# Concentration: 20 nM
# Setting: 7-mer, probes averaged, single round
# Baseline: mean of 7-mers
# Reading: higher = stronger binding
# Target sequence (chain): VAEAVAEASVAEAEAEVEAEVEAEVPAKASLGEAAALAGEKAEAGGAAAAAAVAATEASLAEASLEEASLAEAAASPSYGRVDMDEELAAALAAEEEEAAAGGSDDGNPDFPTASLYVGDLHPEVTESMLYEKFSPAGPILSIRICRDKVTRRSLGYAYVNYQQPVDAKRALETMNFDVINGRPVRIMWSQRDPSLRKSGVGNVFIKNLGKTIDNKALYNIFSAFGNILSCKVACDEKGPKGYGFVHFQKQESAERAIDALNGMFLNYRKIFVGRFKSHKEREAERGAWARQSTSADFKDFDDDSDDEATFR
Strand,7-mer Z-score
ACGUGCG,0.00798
GGUCACG,0.0261
UAUUGCU,-0.199
CAUCCGU,-0.286
UAGAACG,0.046
CUCUUUU,-0.00833
UCGAGGC,-0.202
GUCGGUC,-0.316
AUUCAUA,-0.0863
UCGACCA,-0.287
GGAUCGG,0.109
UGCAAUA,0.046
ACAAUUA,0.0859
CAGCAGC,-0.0482
AACGGGA,0.418
CACUCAG,-0.0663
GACCGGG,0.00979
UAUUGGC,-0.126
ACUGCCC,-0.179
ACGAGCA,0.0932
CCUGGCC,-0.414
CAUGCCU,-0.153
UAUGUCA,-0.258
UGUAUGG,-0.157
AAGAGUA,0.343

# Set 2
# Target: Phosphate system positive regulatory protein PHO4, full length, GST-tagged (PHO4, Saccharomyces cerevisiae, UniProt P07270, residues 1-312)
# Method: competition protein-binding microarray
# Form: double-stranded DNA, one strand shown
# Medium: in vitro
# Concentration: 2 µM
# Setting: whole 60-bp probe, lowest competitor level
# Together with: Cbf1 competitor, 0.05 µM
# Reading: higher = stronger binding
# Target sequence (chain): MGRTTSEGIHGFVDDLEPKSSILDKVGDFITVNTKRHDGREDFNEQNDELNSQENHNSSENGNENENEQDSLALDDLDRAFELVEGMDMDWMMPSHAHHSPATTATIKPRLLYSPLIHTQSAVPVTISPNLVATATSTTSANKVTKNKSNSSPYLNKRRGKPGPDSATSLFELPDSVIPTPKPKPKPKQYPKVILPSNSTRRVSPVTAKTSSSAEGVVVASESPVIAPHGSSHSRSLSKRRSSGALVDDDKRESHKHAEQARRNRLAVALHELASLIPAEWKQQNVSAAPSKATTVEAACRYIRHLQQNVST
Strand,fluorescence intensity [a.u.]
TGTCTTATCTGCTCCTTTGTGATATTACGGTCTCAAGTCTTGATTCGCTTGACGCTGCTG,3770
TGGCCCTTTGTTGGGCATGTGCTGCAAGAAAACTGGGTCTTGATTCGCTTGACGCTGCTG,10700
GATGCCGATAATTTTCACATGGATGAGTCGCAGTGTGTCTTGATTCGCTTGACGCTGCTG,5620
ACCTTAAACACTCACCACGTGCAAACAACAGAATATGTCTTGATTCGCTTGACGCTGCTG,17800
CTTCTGTAAATTTGACCCGTGGGTGGACGCGCCCCGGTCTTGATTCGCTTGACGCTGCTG,7880
CTTTCCCGATCTTGACATGTGGGTGTAGCACATTTGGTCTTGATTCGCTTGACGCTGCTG,11800
TATGATCCCTCCCATCACATGGACACTTTTAAGCAAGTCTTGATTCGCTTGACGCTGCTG,7360
CATACCCAACCTTGACTTGTGGGTGAAGATATTTGTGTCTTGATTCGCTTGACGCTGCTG,4750
TTCTACTATCCGTGAAGCGTGACGGGCCCTTCTCAAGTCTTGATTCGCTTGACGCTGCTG,5890
AAAGCGGTAATTTTTCACGTGGTGTCAAATATCTATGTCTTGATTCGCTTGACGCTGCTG,12400
ACCCTCAAGCTTTGGCGCGTGCGGATCTATATAAGGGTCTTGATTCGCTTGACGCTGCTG,13100
AAAGCGGTAATTTGGCGAGTGGGTGCAGATATCTATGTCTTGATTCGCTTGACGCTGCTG,4180
GCCGGAAAAAAAAAGCACGCATCCGGCAAGCACACTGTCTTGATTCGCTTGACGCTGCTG,8650
CTTTCCCGATCTTTTCACGTGCATTTAGCACATTTGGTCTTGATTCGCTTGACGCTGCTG,15200
CGGGGTTAAGTTTGGACCGTGGGTGGCTTGCAGCAGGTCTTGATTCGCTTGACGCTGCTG,8670
GTCTTGTCTCATTGTGCTGTGGGTGTCCCCACTTCAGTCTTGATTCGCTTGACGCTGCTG,5060
TTCAGAGAACTCCTTCATGTGCTTCAAGACAGAGTCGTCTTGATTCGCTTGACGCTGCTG,6150
TCTCTGGCCCGAAACCTCGTGTTGGTACAAATCCTCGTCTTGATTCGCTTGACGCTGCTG,10000

# Set 3
# Target: Ras GTPase-activating protein-binding protein 1, C-terminal RGG region (G3BP1, Homo sapiens, UniProt Q13283)
# UniProt Q13283, sequence (whole entry, looked up): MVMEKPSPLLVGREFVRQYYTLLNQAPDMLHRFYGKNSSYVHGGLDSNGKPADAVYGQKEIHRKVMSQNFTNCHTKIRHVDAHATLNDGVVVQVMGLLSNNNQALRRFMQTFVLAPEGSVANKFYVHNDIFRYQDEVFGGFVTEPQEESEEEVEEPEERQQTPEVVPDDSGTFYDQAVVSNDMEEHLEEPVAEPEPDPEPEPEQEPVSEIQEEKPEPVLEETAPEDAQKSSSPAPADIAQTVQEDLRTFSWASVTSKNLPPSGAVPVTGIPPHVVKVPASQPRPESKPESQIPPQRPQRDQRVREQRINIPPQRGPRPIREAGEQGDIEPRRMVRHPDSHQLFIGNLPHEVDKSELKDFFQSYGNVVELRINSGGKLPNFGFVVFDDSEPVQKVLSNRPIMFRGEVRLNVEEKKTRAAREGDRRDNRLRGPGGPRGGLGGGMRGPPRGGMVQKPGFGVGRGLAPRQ
# Method: RNA Bind-n-Seq
# Form: RNA
# Medium: in vitro
# Concentration: 1 µM
# Setting: whole 134-nt RNA, ends assumed
# Together with: 150 mM KCl
# Baseline: input library
# Reading: higher = stronger binding
Strand,log2 enrichment
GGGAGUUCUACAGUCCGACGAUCUGCUUCAGACCAAGCGGAGCUCCCGGAGGCAAAGCCUGGAGCUGCAGAAGUGUGAAGAGAUCCUCCACAAGAUCGUGAAGUACCGCUUCAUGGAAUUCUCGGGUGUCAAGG,-2.95
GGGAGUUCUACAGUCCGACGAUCCGGUCAGACUUUGUGUUACAUAAAUUAACACUGUUCUCAGGUAAUGAGAGAUCCAAACACCAAGCGCUCCAGGGGCUUUGGGUUUGUCACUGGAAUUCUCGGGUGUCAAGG,-0.964
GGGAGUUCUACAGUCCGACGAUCCAAGUCCUGUGCUACACAUCGUAUGUACCGAAUCGGAAAAAGGAAAGGUUUUUGGAAAGUAUUAUGUUACGCCGUUCGGAUCUGCACUUCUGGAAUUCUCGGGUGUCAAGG,-2.05
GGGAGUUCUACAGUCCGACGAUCCACAGACAACACGCACCCACACAGACACAGAGGGAAGGGGUUGGGAUGGGGACAGGGUGCACAGCAGGGUGGGGUAGGACCCCAGCCCCUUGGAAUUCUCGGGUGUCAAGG,-0.984
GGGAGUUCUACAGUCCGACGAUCUAACUUUAGAGGAGGAUCUGAUGGAUAUGGCAGUGGACGUUGAUUUGGGGAUGGCUAUAAUGGGUAUGGAGGAGGACCUGGAGGUGGCAAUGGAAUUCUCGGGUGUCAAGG,-1.1
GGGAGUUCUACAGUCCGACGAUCAGUCCUGUGCUACACAUCGUAUGUACCGAAUCGGGGUUUUGGUUUUGGGUUUUGGGGAAAGUAUUAUGUUACGCCGUUCGGAUCUGCACUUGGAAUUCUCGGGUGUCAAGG,-0.686
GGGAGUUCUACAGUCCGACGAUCCCUCAAGUCCUGUGCUACACAUCGUAUGUACCGAAUCGGGUUGGUUGGUUGGAAAGUAUUAUGUUACGCCGUUCGGAUCUGCACUUCCAGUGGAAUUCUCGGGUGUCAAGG,-0.613
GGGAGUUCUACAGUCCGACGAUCAAGUCCUGUGCUACACAUCGUAUGUACCGAAUCGGGGCCCGGGCCCGGGGCCCGGGGAAAGUAUUAUGUUACGCCGUUCGGAUCUGCACUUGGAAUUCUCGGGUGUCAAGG,-2.56
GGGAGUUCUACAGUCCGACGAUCCCUCAAGUCCUGUGCUACACAUCGUAUGUACCGAAUCGGGUUGGUUGGGUUGGAAAGUAUUAUGUUACGCCGUUCGGAUCUGCACUUCCAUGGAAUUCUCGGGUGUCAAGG,-0.802
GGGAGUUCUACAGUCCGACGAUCGCAGGAAGUAAAAACAAAUGGAAAUGCUUCGGAUAGUGUCAGGGGUGGGGGUUGCUAAGGAAAGGGUGGGAUGGGAGUGGGUAAAGAGUUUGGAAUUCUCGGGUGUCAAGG,0.997

# Set 4
# Target: Probable WRKY transcription factor 33, C-terminal DNA-binding domain (WRKY33, Arabidopsis thaliana, UniProt Q8S8P5, residues 346-449)
# Method: DNA-protein interaction ELISA
# Form: double-stranded DNA, one strand shown
# Medium: in vitro, bacterial lysate
# Concentration: not given
# Setting: whole dsDNA probe, crude lysate protein
# Baseline: highest signal in screen
# Reading: higher = stronger binding
# Construct (chain): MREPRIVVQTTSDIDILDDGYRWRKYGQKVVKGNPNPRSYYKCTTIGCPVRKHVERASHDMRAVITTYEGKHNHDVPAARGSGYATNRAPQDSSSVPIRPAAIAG
Strand,relative absorbance
AAAAAACCCATCCTTCGTTCCATCGTAAAA,33.3 % of maximum
AAAAAATACGTCTACGTGGTTGTCGTAAAA,74.4 % of maximum
AAAAAATTTGCTCTTTTGGTTTTCACAAAA,23.9 % of maximum
AAAAAAGTCTAAGGACTTATAGCTGTAAAA,99.5 % of maximum
AAAAAAAGCTTCTATAGCTCCATGGAAAA,34.5 % of maximum
AAAAAATAAACGTGTTCATACTTAGTAAAA,29.6 % of maximum
AAAAAATGCCCTTTTTATCTTTATGTAAAA,33.9 % of maximum
AAAAAATGTCGGCTGTTAGGATATCGAAAA,26.9 % of maximum
AAAAAATGCTATCCGTGTCTATGCCAAAAA,43.2 % of maximum
AAAAAACCGATCATCACATATCACTGAAAA,31.9 % of maximum
AAAAAAGGTTGGTACGTCGAGTTCTTAAAA,33.3 % of maximum
AAAAAAACGATACGGTATCTAGAAAA,44 % of maximum
AAAAAATGGTACTCAGAGTTATAGACAAAA,52.8 % of maximum
AAAAAATAATTACAAGTCGGCTCCACAAAA,29.7 % of maximum
AAAAAAACTCTAGGTCAATATTATTCAAAA,99.8 % of maximum
AAAAAAGCTCATGGCCCTGAGGATCTAAAA,46.1 % of maximum
AAAAAAGATTGACTCGTCTTACTCGAAAAA,99.7 % of maximum
AAAAAACTAACCGTCGCAGGCGTGTGAAAA,55.3 % of maximum

# Set 5
# Target: Histone acetyltransferase KAT6A, both winged helices, GST fusion (KAT6A, Homo sapiens, UniProt Q92794, residues 1-181)
# Method: protein binding microarray
# Form: double-stranded DNA, one strand shown
# Medium: in vitro
# Concentration: not given
# Setting: 8-mer, flanks averaged, mean of 2 arrays, mostly near background
# Baseline: not given
# Reading: higher = stronger binding
# Target sequence (chain): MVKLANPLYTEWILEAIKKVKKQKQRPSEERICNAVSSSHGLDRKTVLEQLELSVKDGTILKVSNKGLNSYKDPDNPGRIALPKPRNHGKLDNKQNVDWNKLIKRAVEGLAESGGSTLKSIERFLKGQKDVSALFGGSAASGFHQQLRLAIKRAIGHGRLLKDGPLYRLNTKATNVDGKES
Strand,E-score
ATGTCTGA,-0.0106
AATTTTGG,-0.0709
GCTAAGAC,0.012
ATGAAGCC,0.0288
CCCTTCCG,0.118
AAGAGTTA,-0.203
ACAGCGGC,0.27
AACAGCTC,-0.0625
ATGTCGCA,0.215
GCAACAAA,-0.121
AGTAATAG,-0.07
ATGTGACC,-0.0333
AAACGGGC,0.195
AATAGACC,0.0354
AGGCGCTG,0.235
AAGCGATT,0.0575
AGAGTCAG,-0.00176
AAACAAAT,-0.142
ATCACGTA,-0.0926
AGAAACGC,0.151
CCATTACG,0.00153
CAATCTCA,-0.0546
ATACAATA,0.0213
ACTAAAGG,-0.167
CGGTGAAA,0.197

# A few entries again (set 2):
Strand,fluorescence intensity [a.u.]
CTTCTGTAAATTTGACCCGTGGGTGGACGCGCCCCGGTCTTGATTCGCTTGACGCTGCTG,7880
CTTTCCCGATCTTGACATGTGGGTGTAGCACATTTGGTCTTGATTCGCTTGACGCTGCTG,11800
TATGATCCCTCCCATCACATGGACACTTTTAAGCAAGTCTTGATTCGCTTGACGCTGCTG,7360
CATACCCAACCTTGACTTGTGGGTGAAGATATTTGTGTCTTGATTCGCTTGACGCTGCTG,4750
TTCTACTATCCGTGAAGCGTGACGGGCCCTTCTCAAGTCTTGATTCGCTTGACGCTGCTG,5890
AAAGCGGTAATTTTTCACGTGGTGTCAAATATCTATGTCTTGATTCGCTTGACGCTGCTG,12400
ACCCTCAAGCTTTGGCGCGTGCGGATCTATATAAGGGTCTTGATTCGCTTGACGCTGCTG,13100
AAAGCGGTAATTTGGCGAGTGGGTGCAGATATCTATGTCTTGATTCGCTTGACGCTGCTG,4180
GCCGGAAAAAAAAAGCACGCATCCGGCAAGCACACTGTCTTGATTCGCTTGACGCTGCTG,8650
CTTTCCCGATCTTTTCACGTGCATTTAGCACATTTGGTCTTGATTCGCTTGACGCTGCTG,15200
